Published values collected from several papers.
Each numbered part is a random draw from the data of one study; scales do not carry over between parts. Several values in a cell are separate wells, animals, samples, runs or records.
UniProt Q9UQM7, sequence (whole entry, looked up): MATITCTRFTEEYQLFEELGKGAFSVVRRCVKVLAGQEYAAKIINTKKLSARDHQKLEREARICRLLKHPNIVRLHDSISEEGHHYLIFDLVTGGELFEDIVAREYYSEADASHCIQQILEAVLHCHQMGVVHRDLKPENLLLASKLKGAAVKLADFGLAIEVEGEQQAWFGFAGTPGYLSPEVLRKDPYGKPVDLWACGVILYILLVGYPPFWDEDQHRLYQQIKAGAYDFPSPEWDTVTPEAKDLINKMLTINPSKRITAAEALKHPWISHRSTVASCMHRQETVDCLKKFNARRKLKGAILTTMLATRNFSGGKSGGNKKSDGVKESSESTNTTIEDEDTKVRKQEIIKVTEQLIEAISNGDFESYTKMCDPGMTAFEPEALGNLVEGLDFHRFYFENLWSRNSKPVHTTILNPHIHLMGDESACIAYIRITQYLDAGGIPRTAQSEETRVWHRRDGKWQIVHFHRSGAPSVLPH

Block 1
Structure (SMILES): CC(C)S(=O)(=O)c1ccc2nccc(Nc3ccc4sc(C5CCCC5)nc4c3)c2c1.Cl
Method: CCK-8
Measurement: survival
L929 RIPK3-/- reexpressing RIPK3 K51A/R69H; 1.563 µM, added: zVAD: 99% and 101% and 98.5% and 95.3% and 83.2%
L929 RIPK3-/- reexpressing RIPK3 K51A/R69H; 3.125 µM, added: zVAD: 99.6% and 84.7% and 86.5% and 97.3%
L929 RIPK3-/- reexpressing RIPK3 K51A/R69H; 12.5 µM, added: zVAD: 98% and 96.2% and 101% and 83.3% and 98.8%
L929 RIPK3-/- reexpressing RIPK3 K51A; 25 µM, added: zVAD: 89.2% and 113% and 110% and 85.7% and 90.9%
L929 RIPK3-/- reexpressing RIPK3 K51A/R69H; 6.25 µM: 86.2% and 96.5% and 102% and 84.2% and 104%

Block 2
Cell line: HEK-293T/ACE2
Concentration: 10 µM
Time: 16 h
Baseline: vehicle
Measurement: viability
COc1cc([C@@H]2c3cc4c(cc3[C@@H](O[C@@H]3O[C@@H]5CO[C@@H](c6cccs6)O[C@H]5[C@H](O)[C@H]3O)[C@H]3COC(=O)[C@H]23)OCO4)cc(OC)c1O: 61.7%
Cc1cccc(Nc2ccccc2C(=O)O)c1C: 93.6%
Oc1ccc(OCc2ccccc2)cc1: 81.6%
N[C@@H](Cc1ccc(O)c(O)c1)C(=O)O: 100%
O=C(O[C@H]1C[C@H]2CC[C@@H](C1)[N+]21CCCC1)C(O)(c1ccccc1)c1ccccc1: 97.7%
CCCCCCCCCCCCCCCCCCCCCCO: 102%
CC(C)[C@H]1CC[C@H](C(=O)N[C@H](Cc2ccccc2)C(=O)O)CC1: 103%

Other studies, line by line
C[C@H]1CC[C@@H]2N(C1)C[C@H]1[C@@H]3C[C@H]4[C@@H](C[C@@H](O)[C@H]5C[C@@H](O)CC[C@@]54C)[C@@H]3CC[C@@H]1[C@]2(C)O  inhibition (CAMK2A (Homo sapiens, UniProt Q9UQM7); enzyme activity, inhibitor; 10 µM): -17%
CO[C@H]1CC=C2CCN3CCC4=C(CC(=O)OC4)[C@]23C1  nuclear SOX9 intensity (mouse MPNST tumor cells; high-content immunofluorescence imaging, measured: nuclear SOX9; 10 µM, 12 h, mean of 2 replicates; baseline: DMSO control, higher = more nuclear SOX9): 93.2 % of DMSO
CCOC(=O)[C@@H]1CSCC(=O)N[C@@H](CC)C(=O)N(C)[C@@H](C)C(=O)N[C@@H](CC(C)C)C(=O)N(C)[C@H](C)C(=O)N(CC(C)C)CC(=O)N[C@H](CC(C)C)C(=O)N(C)[C@H](C)C(=O)N[C@@H](CC(C)C)C(=O)N1C  log k' (60) (PRP-column chromatography): 0.686

For quick reference, copied from above (block 1):
L929 RIPK3-/- reexpressing RIPK3 K51A/R69H; 1.563 µM, added: zVAD: 99% and 101% and 98.5% and 95.3% and 83.2%
L929 RIPK3-/- reexpressing RIPK3 K51A/R69H; 6.25 µM: 86.2% and 96.5% and 102% and 84.2% and 104%
